{"data": "Measurements of several laboratories", "note": "± marks the error that the study gave."}
{"Structure (SMILES)": "C=CC(=O)N1CCCC(n2c(=O)c3ncccc3n(Cc3ccc(Oc4ccccc4)cc3)c2=O)C1 (stereo not shown)", "cell line": "primary ALL cells", "test": "cell viability", "conditions": "72 h, less sensitive samples, MSC co-culture", "IC50": "> 20 µM"}
{"Structure (SMILES)": "Cc1ccc(S(=O)(=O)c2c(-c3ccccc3)c3c(C)c4cc(F)ccc4n3c3ccccc23)cc1", "cell line": "LS174T", "test": "cell growth or viability, MTT", "conditions": "72 h", "IC50": "> 100 µM"}
{"Structure (SMILES)": "Cc1cc(/C=C/C#N)cc(C)c1Oc1cc(Nc2ccc(C#N)cn2)nc2cnccc12", "cell line": "MOLT-3", "conditions": "48 h", "IC50": "84.7 ± 30.5 µM"}
{"Structure (SMILES)": "Cc1ccc2oc(-c3c4c(N)n[nH]c(=O)c4nn3-c3ccc(NC(=O)/C=C/CN4CCOCC4)cc3)c(C)c2c1", "cell line": "SNU-16", "test": "cell growth or viability", "IC50": "0.0757 µM"}
{"Structure (SMILES)": "C[C@@H]1NC(=O)[C@@H](CCC(=O)O)NC(=O)[C@H](Cc2ccccc2)NC(=O)[C@H](CCC(=O)O)NC(=O)[C@H](CC(N)=O)NC1=O", "cell line": "WM-115", "test": "WM-115 cell adhesion, inhibitor", "conditions": "1 h, with: immobilized CagL RGA mutant", "IC50": "30 to 530 µM"}
{"Structure (SMILES)": "C=C1C(=O)OC2C1CCC1(C)CC1CCC1(C)OC21 (stereo not shown)", "cell line": "TEX", "test": "cell growth, inhibitor, Alamar blue", "conditions": "48 h", "IC50": "3.8 ± 0.2 µM"}
{"Structure (SMILES)": "CC1CC(=O)NN=C1c1ccc(NC(=O)N2Cc3ccncc3C2)cc1 (stereo not shown)", "cell line": "A549-C4.4a", "test": "cell viability, CellTiter-Glo", "IC50": "0.134 µM"}
{"Structure (SMILES)": "C=C1C(=O)C23CCC4C(C)(C)CCCC4(C)C2C(O)CC1C3 (single isomer, unassigned)", "cell line": "786-0", "test": "cell growth or viability, MTT", "IC50": "4.9 µM"}
{"Structure (SMILES)": "[Cl][Pd-]1([Cl])[S]C(Nc2ccccc2)=N[N+]1=Cc1cccs1", "cell line": "CEM human lymphocytes", "test": "cell proliferation", "IC50": "34 µM"}
{"Structure (SMILES)": "C=CCc1ccc(OC(C)=O)c(OC)c1", "cell line": "EJ-28", "test": "MTT", "conditions": "24 h", "IC50": "> 50 µM"}
{"Structure (SMILES)": "O=[N+]([O-])c1ccc(NC2=N[N+](=Cc3cccs3)[Pd-]([Cl])([Cl])[S]2)cc1", "cell line": "CEM human lymphocytes", "test": "cell proliferation", "IC50": "152 µM"}
{"Structure (SMILES)": "Cc1cc(C)c(-n2c3c([n+](-c4c(C)cc(C)cc4C)[c]2[Au-][Cl])-c2cccc4cccc-3c24)c(C)c1", "cell line": "C13 cisplatin-resistant", "test": "cell viability, MTT", "conditions": "72 h", "IC50": "8 ± 1 µM"}
{"Structure (SMILES)": "CCCCCCCCC=CCCCCCCCC(=O)OCC1OC(n2ccc(N)nc2=O)C(F)(F)C1O (stereo not shown)", "cell line": "THX", "test": "cell growth", "conditions": "with: NBMPR 100 µM", "IC50": "0.0063 ± 0.0051 µM"}
{"Structure (SMILES)": "CCCCCCCCCCCCCCCCCC(=O)N[C@@H](CCCN)C(=O)N[C@@H](CCCN)C(=O)N[C@@H](CCCN)C(=O)N[C@@H](CCCN)C(=O)N[C@@H](CCCN)C(N)=O", "cell line": "HCEC", "test": "cytotoxicity", "IC50": "18.7 µg/mL"}
{"Structure (SMILES)": "Cc1c(C)c(C)[c-](C)c1C.Fc1c[c-]c(-c2ccccn2)cc1.[Cl-].[Ir+3]", "cell line": "A2780 cells", "test": "cell growth, SRB", "conditions": "24 h exposure, 72 h recovery", "IC50": "2.7 ± 0.3 µM"}
{"Structure (SMILES)": "Clc1ccc(C=[N+]2N=C(Nc3ccccc3)[S][Pt-]2([Cl])[Cl])s1", "cell line": "CEM human lymphocytes", "test": "cell proliferation", "IC50": "36 µM"}
{"Structure (SMILES)": "CCn1cc[n+](CC)[c]1[Au-]([Cl])([Cl])[Cl]", "cell line": "RC-124 kidney epithelial", "test": "cell proliferation, crystal violet staining", "conditions": "96 h", "IC50": "7 ± 2.4 µM"}
{"Structure (SMILES)": "Cc1ccc(NC(=O)c2c(C)oc3ccc(O)c(CN4CCCCCC4)c23)cc1", "cell line": "ARD", "test": "cell viability, MTS", "conditions": "72 h", "IC50": "12.9 ± 1.4 µM"}
{"Structure (SMILES)": "CC(=O)[O-].O.O.[O-]c1ccc(Br)cc1C=NCCN1CCOCC1.[Zn+2]", "cell line": "NHDF normal fibroblasts", "test": "cell viability, MTT", "conditions": "72 h", "IC50": "66.5 µg/mL"}
{"Structure (SMILES)": "CN1CCCNC(=O)c2cccc(c2)C(=O)NCCCN(C)CCCNc2cccc3c2C(=O)c2cccc(c2C3=O)NCCC1", "cell line": "Ca9-22", "test": "cell growth or viability, CCK-8", "conditions": "48 h", "IC50": "0.4 µM"}
{"Structure (SMILES)": "CCOC(=O)c1ccc2c(c1)n(CC)[c]([Au-][Cl])[n+]2CC", "cell line": "RC-124 kidney epithelial", "test": "cell proliferation, crystal violet staining", "conditions": "96 h", "IC50": "4 ± 2.6 µM"}
{"Structure (SMILES)": "Cc1c(C(=O)/C=C/c2ccco2)nnn1-c1c(Cl)cc(Cl)cc1Cl", "cell line": "THLE-2", "test": "cell growth or viability, MTT", "IC50": "42.3 µM"}
{"Structure (SMILES)": "Cc1c(C)c(C)[c-](C)c1C.O=Cc1ccc(-c2[c-]cccc2)nc1.[Cl-].[Ir+3]", "cell line": "A2780 cells", "test": "cell growth, SRB", "conditions": "24 h exposure, 72 h recovery", "IC50": "4.4 ± 0.4 µM"}
{"Structure (SMILES)": "CC(C)(C)OC(=O)C(NCc1ccc(CCC(=O)NO)nc1)C1CCCCC1 (stereo not shown)", "cell line": "human CD14+ monocytes", "test": "M-CSF differentiation", "conditions": "20 h then washout, with: M-CSF", "IC50": "0.625 µM"}
{"Structure (SMILES)": "Cn1cc(-c2cc(N3CCCCS3(=O)=O)ccc2N[C@H]2CC[C@H](C)CC2)c2cc[nH]c2c1=O (stereo in doubt)", "cell line": "Light2 cells transfected with GLI1", "test": "GLI-luciferase reporter, inhibitor, item: GLI1", "IC50": "0.0003 µM"}
{"Structure (SMILES)": "C=CC(OC(C)=O)c1ccc(OC(C)=O)c(OC)c1 (stereo not shown)", "cell line": "EJ-28", "test": "cell growth or viability, MTT", "conditions": "24 h", "IC50": "4.2 µM"}
{"Structure (SMILES)": "CC(C)c1cccc(C(C)C)c1-n1ccn(-c2c(C(C)C)cccc2C(C)C)c1=[Se].[Cl][Ag]", "cell line": "LoVo MDR", "test": "MTT", "conditions": "72 h", "IC50": "5.4 ± 1.2 µM"}
{"Structure (SMILES)": "COc1ccc(/C=C/C2=[N+]3C(=C(CO)c4c(C)cc(/C=C/c5ccc(OC)cc5)n4[B-]3(F)F)C(C)=C2C=O)cc1", "cell line": "RPE-1", "test": "cell growth or viability, resazurin", "conditions": "dark", "IC50": "> 100 µM"}
{"Structure (SMILES)": "C=CC(=O)Nc1ccc(-c2c(-c3ccc(Oc4cccc(C)n4)cc3)c3c(N)ncnc3n2C)cc1", "cell line": "SNU-16", "test": "cell growth or viability, ATP luminescence", "conditions": "96 h", "IC50": "0.0006 µM"}
{"Structure (SMILES)": "CNC(=O)C1CCN(c2ccccc2NC(=O)c2ccc(-c3cc(O)ccc3C)c(C)n2)CC1", "cell line": "12Z", "test": "item: PTGS2 mRNA", "conditions": "3 h, 30 min pretreatment, with: IL-1β 0.05 ng/mL", "IC50": "1.3 µM"}
{"Structure (SMILES)": "CC(C)=CCC1=C([O-])C(=O)c2ccccc2C1=O.O=[N+]([O-])[O-].[Cu+2].c1ccc(-c2cccc(-c3ccccn3)n2)nc1", "cell line": "MRC5 normal fibroblasts", "test": "cell viability, MTT", "conditions": "24 h", "IC50": "44.1 ± 2.8 µM"}
{"Structure (SMILES)": "O=[N+]([O-])c1ccc(NC2=N[N+](=Cc3cccs3)[Pt-]([Cl])([Cl])[S]2)cc1", "cell line": "CRFK", "test": "cell growth or viability", "IC50": "> 100 µM"}
{"Structure (SMILES)": "O=C1NCC(Cc2ccccc2)N(CC2CCCN2CC(CC2CCCCC2)N2CC(Cc3ccc(O)cc3)N(CCc3ccccc3)C(=O)C2=O)C1=O (stereo not shown)", "cell line": "WM-115", "test": "cell growth or viability, ATP luminescence", "conditions": "72 h", "IC50": "7 µM"}
{"Structure (SMILES)": "NS(=O)(=O)c1ccc(NC(=O)NN[C@@H]2O[C@H](CO)[C@H](O)[C@H](O)[C@H]2O)cc1", "cell line": "HCEC", "test": "cell growth or viability, MTT", "conditions": "96 h", "IC50": "> 100 µM"}
{"Structure (SMILES)": "CC(C)Cc1ccc(C(C)C(=O)[O][Pt]([NH2])([NH2])([Cl])([Cl])[O]C(=O)C(Cl)Cl)cc1 (stereo not shown)", "cell line": "C13 cisplatin-resistant", "test": "cytotoxicity, MTT", "conditions": "72 h", "IC50": "0.97 ± 0.22 µM"}
{"Structure (SMILES)": "COc1ccc(/C=C/C2=[N+]3C(=C(CO)c4c(C)cc(/C=C/c5ccc(OC)cc5)n4[B-]3(F)F)C(C)=C2)cc1", "cell line": "RPE-1", "test": "phototoxicity, resazurin", "conditions": "with: 645 nm light, 9.00 J/cm2", "IC50": "0.2 ± 0.2 µM"}
{"Structure (SMILES)": "S=c1n(-c2ccccc2)c2c3ccccc3nc3[n+]2[n]1[Ir-3]12([S]3)([c]3cccc4ccc5ccc[n+]1c5c34)[c]1cccc3ccc4ccc[n+]2c4c13", "cell line": "MRC9", "test": "cell viability, MTT", "conditions": "dark", "IC50": "> 50 µM"}
{"Structure (SMILES)": "O=C(NCC1(c2nc(-c3ccccc3)cs2)CCOCC1)c1cccc(-c2noc(C(F)(F)F)n2)c1", "cell line": "DHL6", "test": "cell proliferation, CCK-8", "conditions": "120 h", "IC50": "> 10 µM"}
{"Structure (SMILES)": "Cc1cc(NC(=O)c2cccc(NC(=O)/C(C#N)=C/C(C)(C)C)c2)ccc1Nc1nccc(-c2cccnc2)n1", "cell line": "SH-SY5Y MKK7-ACT", "test": "c-Jun phosphorylation, inhibitor, western blot, item: phospho-c-Jun Ser73", "conditions": "6 h, with: doxycycline", "IC50": "8.62 ± 1.97 µM"}
{"Structure (SMILES)": "CC1=C2[O][Ru-]([Cl])[O+]=C2C=CN1CCCCCCCCCCCCN1C=CC2=[O+][Ru-]([Cl])[O]C2=C1C.Cc1ccc(C(C)C)cc1.Cc1ccc(C(C)C)cc1", "cell line": "DAN-G", "test": "cell growth or viability, crystal violet", "conditions": "96 h", "IC50": "4.4 µM"}
